{"data": "Measurements of several laboratories", "note": "Numbered parts are unrelated; each lists some results of a single study. Positions count from the first letter of the parent shown."}
{"data": "Sample 1", "target": "UBE2H UBC core domain (UniProt P62256)", "method": "yeast two-hybrid", "matrix": "yeast", "notes": "mostly zero background", "relative to": "not given", "direction": "higher = stronger interaction", "B1": "TRIM40 RING domain (UniProt Q6P9F5); chain LQKDNQEEGVCPICQESLKEAVSTNCGHLFCRVCLTQHVEKASASGVFCCPLCRKPCSEEVLG", "B2": "SH3RF2 RING domain (UniProt Q8TEC5); chain DDLTLLDLLECPVCFEKLDVTAKVLPCQHTFCKPCLQRVFKAHKELRCPECRTPVFSNIEAL", "B3": "TRAF5 RING domain (UniProt O00463); chain FVERLEERYKCAFCHSVLHNPHQTGCGHRFCQHCILSLRELNTVPICPVDKEVIKSQEVFK", "B4": "TRIM5 RING domain (UniProt Q9C035); chain ILVNVKEEVTCPICLELLTQPLSLDCGHSFCQACLTANHKKSMLDKGESSCPVCRISYQPENIRP", "B5": "TRIML1 RING domain (UniProt Q8N9V2); chain LMENLREELTCFICLDYFSSPVTTECGHSFCLVCLLRSWEEHNTPLSCPECWRTLEGPHFQS", "B6": "TRIM24 RING domain (UniProt O15164); chain EAARLNLLDTCAVCHQNIQSRAPKLLPCLHSFCQRCLPAPQRYLMLPAPMLGSAETPPPVPAPGSPVSGSSPFATQVGVIRCPVCSQECAERHII", "B7": "VPS41 RING domain (UniProt P49754); chain KGVLVDEENICESCLSPILPSDAAKPFSVVVFHCRHMFHKECLPMPSMNSAAQFCNICSAKNRGPGSAI", "B8": "TRIM5 RING domain (UniProt Q9C035); chain LREVKLSPEGQKVDHCARHGEKLLLFCQEDGKVICWLCERSQEHRGHHTFLTEEVAREYQVKL", "UniProt P62256, sequence (whole entry, looked up)": "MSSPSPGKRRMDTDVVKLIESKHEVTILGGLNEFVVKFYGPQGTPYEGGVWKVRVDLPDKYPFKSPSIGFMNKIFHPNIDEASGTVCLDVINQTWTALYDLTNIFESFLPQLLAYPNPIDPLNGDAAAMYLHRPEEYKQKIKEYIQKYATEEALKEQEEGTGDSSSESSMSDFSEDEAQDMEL"}
{"Molecule": "B1 (TRIM40 RING domain)", "lacZ reporter activity": 0}
{"Molecule": "B2 (SH3RF2 RING domain)", "lacZ reporter activity": 0}
{"Molecule": "VEPSEENSKDCVVCQNGTVNWVLLPCRHTCLCDGCVKYFQQCPMCRQFVQESFALC (CGRRF1 RING domain (UniProt Q99675))", "lacZ reporter activity": 0}
{"Molecule": "B3 (TRAF5 RING domain)", "lacZ reporter activity": 0}
{"Molecule": "B4 (TRIM5 RING domain)", "lacZ reporter activity": 0}
{"Molecule": "B5 (TRIML1 RING domain)", "lacZ reporter activity": 0}
{"Molecule": "DHGAVGQEMCCPICCSEYVKGEVATELPCHHYFHKPCVSIWLQKSGTCPVCRCMFPPPL (PJA1 RING domain (UniProt Q8NG27))", "lacZ reporter activity": 0}
{"Molecule": "B6 (TRIM24 RING domain)", "lacZ reporter activity": 0}
{"Molecule": "B7 (VPS41 RING domain)", "lacZ reporter activity": 0}
{"Molecule": "B8 (TRIM5 RING domain)", "lacZ reporter activity": 0}
{"Molecule": "PAELEVQASECVVCLEREAQMIFLNCGHVCCCQQCCQPLRTCPLCRQDIAQRLRIY (LRSAM1 RING domain (UniProt Q6UWE0))", "lacZ reporter activity": 0}
{"data": "Sample 2", "target": "Histone acetyltransferase KAT6A, winged helix 1, GST fusion (KAT6A, Homo sapiens, UniProt Q92794, residues 1-85)", "method": "protein binding microarray", "form": "double-stranded DNA, one strand shown", "matrix": "in vitro", "tested at": "not given", "notes": "8-mer, flanks averaged, mean of 2 arrays, mostly near background", "relative to": "not given", "direction": "higher = stronger binding", "Residues (chain)": "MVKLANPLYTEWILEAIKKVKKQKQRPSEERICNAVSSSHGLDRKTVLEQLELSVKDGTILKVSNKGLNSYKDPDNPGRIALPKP"}
{"Oligonucleotide": "GGCAAGCC", "E-score": 0.156}
{"Oligonucleotide": "AATTGATG", "E-score": -0.183}
{"Oligonucleotide": "AGGATATA", "E-score": -0.221}
{"Oligonucleotide": "AGACAAAG", "E-score": -0.165}
{"Oligonucleotide": "AATAGAAG", "E-score": -0.148}
{"Oligonucleotide": "AACCATAG", "E-score": -0.0136}
{"Oligonucleotide": "TATGATGA", "E-score": -0.197}
{"Oligonucleotide": "AGACGGGC", "E-score": 0.351}
{"Oligonucleotide": "ACGTGACC", "E-score": -0.0636}
{"Oligonucleotide": "ACATAATA", "E-score": -0.126}
{"Oligonucleotide": "CGCGCGTA", "E-score": 0.462}
{"Oligonucleotide": "AGAAGATC", "E-score": -0.145}
{"Oligonucleotide": "CCTGTGGA", "E-score": -0.195}
{"Oligonucleotide": "AGGCCTAG", "E-score": -0.231}
{"Oligonucleotide": "ATGCCTAC", "E-score": -0.266}
{"Oligonucleotide": "CCCCACCA", "E-score": -0.0987}
{"Oligonucleotide": "CGGCCAGC", "E-score": 0.292}
{"Oligonucleotide": "CTGCCGTA", "E-score": 0.303}
{"Oligonucleotide": "CCAATGCA", "E-score": -0.172}
{"Oligonucleotide": "AGGATCCG", "E-score": 0.175}
{"data": "Sample 3", "target": "ATF3, bZIP domain (human)", "method": "DHFR protein complementation", "matrix": "yeast", "notes": "single substitutions, most at no-binding floor", "relative to": "wild-type JUN-FOS pair", "direction": "higher = stronger binding", "starting sequence": "JUN, bZIP domain (human); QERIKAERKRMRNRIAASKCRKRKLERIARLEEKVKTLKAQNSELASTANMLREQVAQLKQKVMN; partner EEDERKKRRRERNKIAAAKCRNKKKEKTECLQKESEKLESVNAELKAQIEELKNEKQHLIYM"}
{"Change": "R53F", "binding fitness [natural log]": -0.54}
{"Change": "E33S", "binding fitness [natural log]": -0.302}
{"Change": "T48V", "binding fitness [natural log]": -0.126}
{"Change": "A49F", "binding fitness [natural log]": -0.34}
{"Change": "V56A", "binding fitness [natural log]": -1.24}
{"Change": "E32K", "binding fitness [natural log]": -0.206}
{"Change": "A57H", "binding fitness [natural log]": -0.186}
{"Change": "L52M", "binding fitness [natural log]": -0.416}
{"Change": "E32A", "binding fitness [natural log]": -0.00717}
{"Change": "A40T", "binding fitness [natural log]": -0.0207}
{"Change": "S47V", "binding fitness [natural log]": -0.00211}
{"Change": "S43I", "binding fitness [natural log]": -0.135}
{"Change": "L45F", "binding fitness [natural log]": -0.58}
{"Change": "M51K", "binding fitness [natural log]": -0.072}
{"Change": "R30Y", "binding fitness [natural log]": -0.13}
{"Change": "T37I", "binding fitness [natural log]": -0.108}
{"Change": "T37V", "binding fitness [natural log]": -0.0566}
{"Change": "L45S", "binding fitness [natural log]": -1.28}
{"Change": "L31V", "binding fitness [natural log]": -0.514}
{"Change": "S43W", "binding fitness [natural log]": -0.23}
{"Change": "S43N", "binding fitness [natural log]": -0.0621}
{"data": "Sample 4", "target": "ABI1, truncated, D143A, DHFR fusion (Arabidopsis thaliana)", "method": "DHFR PCA, deep sequencing", "matrix": "yeast", "notes": "methotrexate growth selection, single substitutions", "together with": "(+)-ABA 0.0091 µM", "relative to": "wild-type fitted maximum", "direction": "higher = stronger binding", "starting sequence": "PYL1, truncated, DHFR fusion (Arabidopsis thaliana); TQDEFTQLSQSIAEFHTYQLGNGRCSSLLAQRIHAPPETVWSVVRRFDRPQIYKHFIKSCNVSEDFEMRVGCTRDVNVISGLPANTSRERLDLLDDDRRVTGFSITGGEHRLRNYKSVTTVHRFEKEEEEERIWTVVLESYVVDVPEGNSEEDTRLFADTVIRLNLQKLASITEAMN"}
{"Change": "E127A", "relative binding score": "40.7%"}
{"Change": "R45S", "relative binding score": "0.0184%"}
{"Change": "L138P", "relative binding score": "7.46%"}
{"Change": "S9Y", "relative binding score": "26.1%"}
{"Change": "S117H", "relative binding score": "-9.75%"}
{"Change": "S42Q", "relative binding score": "28.5%"}
{"Change": "Y115G", "relative binding score": "5.24%"}
{"Change": "T86L", "relative binding score": "20.4%"}
{"Change": "F103T", "relative binding score": "-7.95%"}
{"Change": "S9H", "relative binding score": "25%"}
{"Change": "L28Y", "relative binding score": "-0.431%"}
{"Change": "E139H", "relative binding score": "-12.6%"}
{"Change": "E147A", "relative binding score": "19.1%"}
{"data": "Sample 5", "target": "CCNE1, cyclin fold, Cln2 fusion (human)", "method": "yeast growth competition, sequencing", "matrix": "yeast", "notes": "weak parent motif", "relative to": "not given", "direction": "higher = stronger binding", "starting sequence": "SGO1 docking peptide (human); PLAKRALKYTDEK"}
{"Change": "Y9A", "normalised enrichment score": -0.0242}
{"Change": "T10A", "normalised enrichment score": 0.598}
{"Change": "K13A", "normalised enrichment score": 0.226}
{"Change": "R5A", "normalised enrichment score": -0.113}
{"Change": "E12A", "normalised enrichment score": 0.285}
{"Change": "P1A", "normalised enrichment score": 0.286}
{"data": "Sample 6", "target": "TAR DNA-binding protein 43, full length, His tag (TARDBP, Homo sapiens, UniProt Q13148, residues 1-414)", "method": "RNA Bind-n-Seq", "form": "RNA", "matrix": "in vitro", "tested at": "20 nM", "notes": "6-mer, flanks averaged, single round", "together with": "150 mM KCl", "relative to": "input library", "direction": "higher = stronger binding"}
{"Oligonucleotide": "GCAGAG", "6-mer enrichment (R)": 1.81}
{"Oligonucleotide": "CCUGUU", "6-mer enrichment (R)": 0.619}
{"Oligonucleotide": "UGUUCG", "6-mer enrichment (R)": 0.76}
{"Oligonucleotide": "GCUGUU", "6-mer enrichment (R)": 0.78}
{"Oligonucleotide": "AGUUCA", "6-mer enrichment (R)": 0.579}
{"Oligonucleotide": "CACUAG", "6-mer enrichment (R)": 0.684}
{"Oligonucleotide": "UAAGAG", "6-mer enrichment (R)": 1.05}
{"Oligonucleotide": "AGCGUA", "6-mer enrichment (R)": 0.809}
{"Oligonucleotide": "ACCCAC", "6-mer enrichment (R)": 0.658}
{"Oligonucleotide": "GGACCU", "6-mer enrichment (R)": 0.962}
{"Oligonucleotide": "CGUAAC", "6-mer enrichment (R)": 0.623}
{"Oligonucleotide": "AGGCAU", "6-mer enrichment (R)": 0.823}
{"Oligonucleotide": "AGUUGC", "6-mer enrichment (R)": 0.763}
{"Oligonucleotide": "AAAGAG", "6-mer enrichment (R)": 0.956}
{"Oligonucleotide": "GGUCGG", "6-mer enrichment (R)": 3.16}
{"Oligonucleotide": "GUAACC", "6-mer enrichment (R)": 0.66}
{"Oligonucleotide": "CAUUUU", "6-mer enrichment (R)": 0.677}
{"note": "For quick reference, copied from above (sample 2):"}
{"Oligonucleotide": "AACCATAG", "E-score": -0.0136}
{"Oligonucleotide": "TATGATGA", "E-score": -0.197}
{"Oligonucleotide": "AGACGGGC", "E-score": 0.351}
{"Oligonucleotide": "ACGTGACC", "E-score": -0.0636}
{"Oligonucleotide": "ACATAATA", "E-score": -0.126}
